Measured values gathered from unrelated publications.
Every numbered part comes from another study and shows a few of its results, in no order. Changes are numbered by the printed parent chain.

Series 1
Variant: D144C
Target: ABI1, truncated, D143A, DHFR fusion (Arabidopsis thaliana)
Method: DHFR PCA, deep sequencing
Medium: yeast
Setting: methotrexate growth selection, single substitutions
Relative to: wild-type fitted maximum
Direction: higher = stronger binding
Quantity: relative binding score
Starting sequence: PYL1, truncated, DHFR fusion (Arabidopsis thaliana); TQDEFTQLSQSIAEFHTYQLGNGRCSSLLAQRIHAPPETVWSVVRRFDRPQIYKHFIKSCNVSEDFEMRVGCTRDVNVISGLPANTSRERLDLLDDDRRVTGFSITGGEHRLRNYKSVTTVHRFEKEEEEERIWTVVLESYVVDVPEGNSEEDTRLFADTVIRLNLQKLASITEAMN
together with: (+)-ABA 58 µM: 43%
together with: (+)-ABA 4.8 µM: 5.57%
together with: (+)-ABA 710 µM: 84.6%
together with: (+)-ABA 2500 µM: 86.6%
together with: (+)-ABA 0.11 µM: -7.84%
together with: (+)-ABA 0.39 µM: -17.7%

Series 2
Target: Histone acetyltransferase KAT6A, both winged helices, GST fusion (KAT6A, Homo sapiens, UniProt Q92794, residues 1-181)
Method: protein binding microarray
Molecule type: double-stranded DNA, one strand shown
Medium: in vitro
Concentration: not given
Setting: 8-mer, flanks averaged, mean of 2 arrays, mostly near background
Relative to: not given
Direction: higher = stronger binding
Quantity: E-score
Target sequence (chain): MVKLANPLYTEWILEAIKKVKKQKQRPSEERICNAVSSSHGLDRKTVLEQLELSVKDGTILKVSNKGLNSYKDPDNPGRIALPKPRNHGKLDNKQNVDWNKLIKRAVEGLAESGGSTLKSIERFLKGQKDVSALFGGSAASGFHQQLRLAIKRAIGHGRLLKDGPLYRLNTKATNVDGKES
CGGATAAA: 0.213
ATAGATTC: -0.148
ACGCAAAG: -0.0295
AAACGGAG: 0.192
TCACGCAA: 0.0739
AGGCTAGG: -0.25
GCTAAAGC: -0.00517
TAGTACCA: -0.124

Series 3
Target: Interferon regulatory factor 7, full length, phosphomimetic (IRF7, Homo sapiens, UniProt Q92985, residues 1-503, S101K/S471D/S472D/S475D/S476D/S477D/S483D/S484D/S487D)
Sequence of UniProt Q92985 (whole entry, unmodified, looked up): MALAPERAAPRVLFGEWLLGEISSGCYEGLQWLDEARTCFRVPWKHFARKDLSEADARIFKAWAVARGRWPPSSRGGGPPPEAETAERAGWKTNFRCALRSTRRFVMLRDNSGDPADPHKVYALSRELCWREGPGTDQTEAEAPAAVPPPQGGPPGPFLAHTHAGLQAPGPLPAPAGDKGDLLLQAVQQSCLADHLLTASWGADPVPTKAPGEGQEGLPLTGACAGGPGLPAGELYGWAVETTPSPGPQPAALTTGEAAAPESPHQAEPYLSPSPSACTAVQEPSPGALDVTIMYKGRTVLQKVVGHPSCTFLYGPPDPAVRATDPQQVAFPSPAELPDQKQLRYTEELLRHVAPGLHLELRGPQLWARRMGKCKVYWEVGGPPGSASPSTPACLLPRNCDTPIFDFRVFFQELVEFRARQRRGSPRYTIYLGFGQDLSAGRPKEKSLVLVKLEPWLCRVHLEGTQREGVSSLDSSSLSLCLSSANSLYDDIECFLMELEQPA
Method: protein-binding microarray
Molecule type: double-stranded DNA, one strand shown
Medium: in vitro
Concentration: 250 nM
Setting: 60-bp whole probe
Together with: salmon DNA 0.4 mg/ml
Relative to: random background probes
Direction: higher = stronger binding
Quantity: log fluorescence
Constant ends, left off below: GCCTAGCAC … GTCTTGATTCGCTTGACGCTGCTG
TTAGGTATCGGTCTCGGTTTGTGCTAG: 5.31 z-score
TTAGGTAACGGACTGGGTTAGTGCTAG: -0.0253 z-score
CTTGGGCTCTTCTCTGAAGACGTGCTA: -0.732 z-score
GACGATTTCAGTTCCGAGAAGTGCTAG: 0.705 z-score
TTAGGTCTCCTTCTGCTTTAGTGCTAG: -0.0131 z-score
TTAGGTTCCCTTTACCTTTAGTGCTAG: 3.5 z-score
TTAGGACTGGCGACTGGGTTAGTGCTA: -0.476 z-score
GACGCTATCGGGTATCGAGACGTGCTA: -0.332 z-score

Single results of other studies
Starting sequence: PafA, mature enzyme, eGFP fusion (Elizabethkingia meningoseptica, UniProt Q9KJX5); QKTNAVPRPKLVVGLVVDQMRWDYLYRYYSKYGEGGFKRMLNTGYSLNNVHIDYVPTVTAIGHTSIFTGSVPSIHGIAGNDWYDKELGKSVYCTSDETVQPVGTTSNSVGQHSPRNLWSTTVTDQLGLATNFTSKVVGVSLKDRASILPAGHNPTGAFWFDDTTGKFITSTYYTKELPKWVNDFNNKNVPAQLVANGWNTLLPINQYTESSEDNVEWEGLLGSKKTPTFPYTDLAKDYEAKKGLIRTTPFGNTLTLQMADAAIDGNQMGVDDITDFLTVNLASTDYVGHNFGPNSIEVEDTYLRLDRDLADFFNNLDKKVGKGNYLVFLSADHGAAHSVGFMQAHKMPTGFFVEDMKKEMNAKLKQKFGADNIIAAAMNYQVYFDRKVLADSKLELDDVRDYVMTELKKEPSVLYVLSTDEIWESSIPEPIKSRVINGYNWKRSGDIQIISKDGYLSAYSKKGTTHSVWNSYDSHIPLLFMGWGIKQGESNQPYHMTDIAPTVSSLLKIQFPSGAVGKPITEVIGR
S146V
oxyanion analog dissociation constant (tungstate, free oxyanion; microfluidic competitive inhibition; in vitro, cell-free expressed; not given, derived from inhibition constants, unchanged parent 2230 nM; lower = stronger binding): 1.09 µM
